Measurements from different studies.
Numbered parts are unrelated; each lists some results of a single study.

Set 1
Target: Phosphate system positive regulatory protein PHO4, full length, GST-tagged (PHO4, Saccharomyces cerevisiae, UniProt P07270, residues 1-312)
Technique: competition protein-binding microarray
Molecule type: double-stranded DNA, one strand shown
Sample: in vitro
Tested at: 2 µM
Notes: whole 60-bp probe, lowest competitor level
Together with: Cbf1 competitor, 0.05 µM
Reading: higher = stronger binding
Constant ends, left off below: … GTCTTGATTCGCTTGACGCTGCTG
Target sequence (chain): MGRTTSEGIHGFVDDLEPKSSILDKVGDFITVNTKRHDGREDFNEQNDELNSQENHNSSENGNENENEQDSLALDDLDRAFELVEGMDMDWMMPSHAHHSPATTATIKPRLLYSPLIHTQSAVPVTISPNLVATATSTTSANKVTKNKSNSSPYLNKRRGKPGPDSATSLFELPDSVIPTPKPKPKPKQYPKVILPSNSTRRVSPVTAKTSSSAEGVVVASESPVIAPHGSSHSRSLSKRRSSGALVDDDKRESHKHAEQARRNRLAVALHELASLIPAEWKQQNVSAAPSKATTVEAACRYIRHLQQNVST
Strand	fluorescence intensity [a.u.]
ATGATGACAGGATAGCATGTGCTTTTCGACGGCTGA	10600
CATACCCAACCTTGAATCGTGGGTGAAGATATTTGT	7430
CCAAAGCCCTCGAAACGCGTGTTCCTCTCAGCGGCA	8110
GCCTATAACAGCACCAACGTGCGGAATACTGATTGC	12600
GGCCACCAAAGTCCACACGTTGCGCTTGCCTTTTTG	11700
CCAAATTGGCTGAAGAGCGTGGCCGGACGAACATTC	6540
CAACGTATAGACCATCACGTGGTGAGTTTGAAGGGA	16700
CATACCCAACCTTGACACGTGTTTTAAGATATTTGT	19700
ACTGCAGTAATTCTCCACATGGGCCCAGCCACTGAG	9190
TGCGCAACAACTTGCCCGGTGGGTGTATGTCTAGAA	4870
ACCATGGTGCGAAGTTGCATGACAACCCGGACGAAT	5410
CTTCTGTAAATTTGGTGTGTGGGTGGACGCGCCCCG	5440
CTTGCCATACCTTCACACGGGGTTCTTTGAGGCACT	8290
AAAGCGGTAATTTGTATCGTGGGTGCAGATATCTAT	8290
TCATGAGATTGGATGATCGTGCCGATAGACTAGCAG	7230
ATCATGGATGCCCTTTCCGTGATGGGAGTAACGAGA	3960
CGTCCTAGTGATTGTCACAAAACTTCCATGAGGAAG	4090
TCCACCTCAAACGGCCACGCTCTGCTTTTTTTCTAT	8460
TTAATATTTTCGGTGCTCGTGGTGAGGCAGAAGCTG	9450

Set 2
Target: Sal-like protein 4, full length isoform A (SALL4, Homo sapiens, UniProt Q9UJQ4, residues 1-1053)
Sequence of UniProt Q9UJQ4 (whole entry, looked up): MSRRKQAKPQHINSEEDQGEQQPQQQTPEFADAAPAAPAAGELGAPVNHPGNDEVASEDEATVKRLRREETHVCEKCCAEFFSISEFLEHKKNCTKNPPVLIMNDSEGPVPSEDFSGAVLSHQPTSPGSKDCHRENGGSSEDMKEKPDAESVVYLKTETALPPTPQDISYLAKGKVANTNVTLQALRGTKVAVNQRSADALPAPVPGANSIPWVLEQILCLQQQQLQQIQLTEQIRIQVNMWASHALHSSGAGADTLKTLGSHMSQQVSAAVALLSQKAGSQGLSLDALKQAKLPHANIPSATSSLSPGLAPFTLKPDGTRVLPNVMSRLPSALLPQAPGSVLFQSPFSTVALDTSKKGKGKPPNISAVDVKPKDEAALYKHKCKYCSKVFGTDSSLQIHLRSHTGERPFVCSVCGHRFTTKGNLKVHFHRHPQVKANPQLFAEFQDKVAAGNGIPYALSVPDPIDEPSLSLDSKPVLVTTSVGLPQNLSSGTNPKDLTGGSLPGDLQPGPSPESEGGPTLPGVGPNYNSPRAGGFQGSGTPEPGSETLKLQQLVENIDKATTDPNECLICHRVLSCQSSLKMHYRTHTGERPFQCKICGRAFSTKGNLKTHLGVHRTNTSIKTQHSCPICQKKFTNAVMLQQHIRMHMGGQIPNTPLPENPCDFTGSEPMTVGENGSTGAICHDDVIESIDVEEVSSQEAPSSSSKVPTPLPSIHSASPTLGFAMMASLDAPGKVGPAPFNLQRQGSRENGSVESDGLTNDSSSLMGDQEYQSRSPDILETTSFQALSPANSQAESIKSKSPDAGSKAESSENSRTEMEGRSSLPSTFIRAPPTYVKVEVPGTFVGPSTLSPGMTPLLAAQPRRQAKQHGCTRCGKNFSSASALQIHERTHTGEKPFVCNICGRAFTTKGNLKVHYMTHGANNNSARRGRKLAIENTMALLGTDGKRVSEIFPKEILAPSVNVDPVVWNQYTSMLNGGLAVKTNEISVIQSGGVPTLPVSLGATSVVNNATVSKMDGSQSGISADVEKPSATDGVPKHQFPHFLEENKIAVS
Technique: universal PBM
Molecule type: double-stranded DNA, one strand shown
Sample: in vitro
Tested at: 600 nM
Notes: 8-mer, flanks averaged, mean of replicates
Reading: higher = stronger binding
Strand	E-score
AAATCTGT	0.182
TAGAGAAA	0.0162
AGGGGCAA	-0.174
ATTCAGTC	0.0678
ACGGGCCC	-0.437
AGGTACCC	-0.307
AACATAGT	0.185
GCGAAGCA	-0.141
ACGATAAA	0.227
ATTGGGTA	-0.00194
ATTTGAAA	0.288
CGCGGTTA	-0.126
GTCCATTA	0.178
CGGTCCTC	-0.301
CGAGAACC	-0.132
CCATCTGC	-0.0918
CTCAGCTA	-0.0581
ATTAACCG	0.0804
ACACAGCA	0.0973
GCTAGGCA	-0.0995
AGTCCGTA	-0.0745
GGTTTACA	0.142
CGCCTCTC	-0.347
TCACGAGA	-0.198

Set 3
Target: RNA binding protein fox-1 homolog 2, RRM domain, GST-SBP tag (RBFOX2, Homo sapiens, UniProt O43251-10, residues 100-194)
Technique: RNA Bind-n-Seq
Molecule type: RNA
Sample: in vitro
Tested at: 365 nM
Notes: natural RNA segment, single round, ends assumed
Baseline: no-protein control
Reading: higher = stronger binding
Constant ends, left off below: GGGAGUUCUACAGUCCGACGAUC … UGGAAUUCUCGGGUGCCAA
Construct (chain): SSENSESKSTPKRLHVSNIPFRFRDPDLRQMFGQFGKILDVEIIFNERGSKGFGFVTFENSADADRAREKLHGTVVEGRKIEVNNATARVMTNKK
Strand	RBNS enrichment (R)
UCCCGGUGGUGGGAUCCACGCUGGGCCUAGGAUGGGACGUUUUUCUUCUUGGGCCCGGUCCACAGGUCCAAGGACACCCUCCCUCCAGGGUCCUCUCUUCCACAGUGGCG	0.278
GGUAGGAGAAGGAGACGAAGAUGCUUUAGGAAGAUAAAAACCUUACAAAGAAUGUAUACUCAUCUUUUUUGGCCCAUUACAAUACUGCUUUCUCAGGUUCUUAACAGCCU	0.388
AUAAUAUCUGACUAUUGUUUUCUAUUAAAUAUCAGAACCUUACUGGGUCUUUACACCUCUGUGAAGUAGAGAAUUUUGGCAAUGAACUGUUUAACUUGGCCAAUCUAGGC	0.454
UUUCUUGAAAUGAAGGUGCCUUAAGAGAGACCAUGUAUAGAACCCAGGAAGAAAUGCAAAAUCAUGAAGAUGUUAAUGUUGGUUCUAUUUUGAUUCAACAUCACAAAAAA	0.948
CCCGCUCUGCCGCCGCCCGCUGGGGACCGGUUCCCACAAGCCUGCCUCGCCUUGUGUUACGAUAUUUCGUUUGGUCUUAGGUCUUCCUGUGGCUCCCUCUCUCCUGGACU	0.767
GGCCUCCUGAAGCCUUGUCACAACUGGAAACACUUGAAAGGGGACCUCAGAGCCAGCCAUUGCUGGUGUCUGGAGUCUCCCAGACCACUCACUGCUUCUUGCCAGUUAUG	0.198
CCCCCUCAGGAGUAUUUUUGUUGAGGCUUUCCUGGAGGUGAAGAAGCAAUUCCCAUUGCAGCAGGUUAGAGCGAGAAUCAGACAGAGGGCAAAAACCAAUUCGCUUCUCC	0.537
AGGGCUGUGCUGUUAGGCUGCAUCCCACUCAAAAUACAGGAAAAGCACGAAUCAUGAUUCUGCUUUCUGUUAGCUUAGGCAGACAUUGGGCCUUCACCUACAAGUUUUUC	0.402
AACAUCACUGCUGCAGCGAGGCAGCUCCUCUGUCUACUCGUUCAAGUGUCUUACUCUACUGGAUGCUGGAUAGAAAUUUAGGGUAACUUCUGACAAAGUGUGCCGGUCUA	0.301
UCACCUACGGAUUAUUUCUCUUUCUCGCCUGCCCUUAGGAUCUUAAGCUAAAGGGCACUGUUUAUUUCAUGAAACCUUUAAACAUGUCAAAAUGUUUAGUAUAAGAACAC	0.445
AGCUUCCUGGUACUCACAGCAUCUCAGAACAGGGUGCUUCCCUCUGCCUCCAGCUCCAAGGACUCUGCCUACAGGAGUGUGCCUUGGGGCUGAAAGGCCAUGCAAACACA	0.273
AGUCCCAGCCUUCAUCCAUGUGAUUAAGAUCCAGGCCGCUGAAGUUCCCCAGGAAAUGAUCUUCCACUUGAGCAACCUUUUACUUGAUACGAUUUGCACCUUUCUGUUUU	1.44

Set 4
Target: Interferon regulatory factor 5, full length, phosphomimetic (IRF5, Homo sapiens, UniProt Q13568-2, residues 1-514, S451D/S453D/S456D/S462D)
Technique: protein-binding microarray
Molecule type: double-stranded DNA, one strand shown
Sample: in vitro
Tested at: 940 nM top
Notes: 60-bp whole probe
Together with: salmon DNA 0.4 mg/ml
Baseline: random background probes
Reading: higher = stronger binding
Constant ends, left off below: GCCTAGCAC … GTCTTGATTCGCTTGACGCTGCTG
Strand	fitted relative affinity
CTACGCCTGCAGGTGAGCCGGTGCTAG	-0.717 z-score
GACGGTATCCTTCTCCCGACGTGCTAG	1.06 z-score
ATAGATCTCAGACTGGATTAGTGCTAG	-0.227 z-score
TCATTCCTGAAATCTCTTACTGTGCTA	0.863 z-score
TTGGGTCTCCTTCTCCTTTAGTGCTAG	0.57 z-score
AAGTAAAATGCAAAGAGGAAGTGCTAG	-0.23 z-score
TTAGGTTTCCATTTCCTTTAGTGCTAG	2.16 z-score
GACGGACTGCGTTTCCTGACGTGCTAG	-0.478 z-score
GACGGTATCGGTATCGGGCCGTGCTAG	8.96 z-score
TCCAATTCTCTTTTCACTTTGTGCTAG	2.13 z-score
TTAGAACTGGCGTTTCGATTAGTGCTA	1.14 z-score
TCATTTCTTTTTTTCTTACTGTGCTAG	1.86 z-score
GACGGTAACGGGACTGGGGACGTGCTA	-0.432 z-score
TTAGAACTGGGGTACCGATTAGTGCTA	0.133 z-score
TTAGGACTGGGTATCCGTTAGTGCTAG	-0.0586 z-score
CTTCCTTTACTTTCTTTTTTGTGCTAG	2.64 z-score
GACGATCTGGGGTATCGAGACGTGCTA	0.987 z-score
TTGTTTTTCATTATTGTCTCGTGCTAG	1.92 z-score
GACGGACTGGGACTGGCGACGTGCTAG	-0.733 z-score
GACGATATCGGGACTGGAGAAGTGCTA	-0.15 z-score
GACGGTTTCCGACTGGGGACGTGCTAG	0.501 z-score
TGTCATTTACATTTTAGTAGGTGCTAG	0.706 z-score
TCAAGTTTATACCTTAGACTGTGCTAG	-0.311 z-score
TTAGATATCGGGTTTCGGTTAGTGCTA	6.13 z-score
TGAAAATTAGTGTTTGCCCTAGTGCTA	-0.367 z-score
